# Measured values collected from several papers.
# A part holds a random share of what one study measured.
# UniProt Q9BYT3, sequence (whole entry, looked up): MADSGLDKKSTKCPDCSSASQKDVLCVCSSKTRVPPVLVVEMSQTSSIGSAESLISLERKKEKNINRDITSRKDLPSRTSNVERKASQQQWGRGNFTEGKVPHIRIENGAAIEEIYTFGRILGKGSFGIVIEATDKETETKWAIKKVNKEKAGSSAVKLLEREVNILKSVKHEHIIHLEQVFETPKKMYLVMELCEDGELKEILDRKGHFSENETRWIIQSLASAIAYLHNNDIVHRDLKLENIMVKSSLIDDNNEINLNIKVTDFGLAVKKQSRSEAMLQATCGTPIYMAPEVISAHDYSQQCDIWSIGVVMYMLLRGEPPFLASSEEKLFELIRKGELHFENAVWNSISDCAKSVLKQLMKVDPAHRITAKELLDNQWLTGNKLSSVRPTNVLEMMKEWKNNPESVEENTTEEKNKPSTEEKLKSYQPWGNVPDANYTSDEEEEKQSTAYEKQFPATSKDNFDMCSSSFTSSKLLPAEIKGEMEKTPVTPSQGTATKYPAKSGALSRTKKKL
# UniProt P41143, sequence (whole entry, looked up): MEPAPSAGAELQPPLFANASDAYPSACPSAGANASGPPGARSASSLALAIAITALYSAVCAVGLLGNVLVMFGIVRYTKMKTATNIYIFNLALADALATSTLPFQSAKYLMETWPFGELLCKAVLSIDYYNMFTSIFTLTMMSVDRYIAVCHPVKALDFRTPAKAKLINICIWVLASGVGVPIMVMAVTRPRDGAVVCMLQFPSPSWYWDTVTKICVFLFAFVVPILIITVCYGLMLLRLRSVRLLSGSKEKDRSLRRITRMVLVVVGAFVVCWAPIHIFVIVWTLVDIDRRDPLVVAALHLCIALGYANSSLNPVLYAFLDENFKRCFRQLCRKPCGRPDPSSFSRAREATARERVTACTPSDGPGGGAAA
# UniProt P28335, sequence (whole entry, looked up): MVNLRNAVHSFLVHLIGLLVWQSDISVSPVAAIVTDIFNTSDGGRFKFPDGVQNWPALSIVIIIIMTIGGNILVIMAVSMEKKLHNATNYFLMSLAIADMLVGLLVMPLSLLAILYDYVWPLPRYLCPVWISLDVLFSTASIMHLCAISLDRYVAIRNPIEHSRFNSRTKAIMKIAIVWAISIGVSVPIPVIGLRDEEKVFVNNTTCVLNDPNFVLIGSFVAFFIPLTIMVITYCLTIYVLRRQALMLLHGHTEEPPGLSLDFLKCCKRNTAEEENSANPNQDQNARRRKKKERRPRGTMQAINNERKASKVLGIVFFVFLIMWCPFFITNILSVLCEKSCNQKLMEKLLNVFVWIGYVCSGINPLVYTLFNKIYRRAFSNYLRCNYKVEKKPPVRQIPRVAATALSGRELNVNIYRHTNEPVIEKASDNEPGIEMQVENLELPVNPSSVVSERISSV
# UniProt P61075, sequence (whole entry, looked up): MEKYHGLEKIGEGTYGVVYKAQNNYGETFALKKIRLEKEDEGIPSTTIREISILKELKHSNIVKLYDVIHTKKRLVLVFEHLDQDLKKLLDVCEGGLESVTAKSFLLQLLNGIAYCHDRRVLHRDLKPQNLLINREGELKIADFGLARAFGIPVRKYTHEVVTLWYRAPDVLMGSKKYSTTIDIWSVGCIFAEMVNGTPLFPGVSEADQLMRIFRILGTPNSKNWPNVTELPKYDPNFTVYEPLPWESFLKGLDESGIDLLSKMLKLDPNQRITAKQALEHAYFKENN
# UniProt P62344, sequence (whole entry, looked up): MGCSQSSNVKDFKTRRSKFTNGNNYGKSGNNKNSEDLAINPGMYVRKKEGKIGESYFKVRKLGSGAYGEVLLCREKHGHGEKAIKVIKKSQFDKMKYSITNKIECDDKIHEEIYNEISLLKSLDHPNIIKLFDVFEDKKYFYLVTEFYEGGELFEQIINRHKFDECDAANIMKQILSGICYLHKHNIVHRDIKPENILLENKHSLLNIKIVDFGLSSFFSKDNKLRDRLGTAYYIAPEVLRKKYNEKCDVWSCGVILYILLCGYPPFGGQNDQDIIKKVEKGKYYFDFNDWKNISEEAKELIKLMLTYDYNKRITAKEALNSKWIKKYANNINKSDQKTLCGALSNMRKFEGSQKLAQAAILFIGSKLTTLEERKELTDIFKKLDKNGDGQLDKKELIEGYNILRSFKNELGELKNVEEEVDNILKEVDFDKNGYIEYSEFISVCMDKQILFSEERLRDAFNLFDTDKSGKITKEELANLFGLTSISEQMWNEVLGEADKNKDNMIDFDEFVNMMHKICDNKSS

# Series 1
# Structure (SMILES): CNC(=O)c1ccc(-c2cnn3ccc(C(=O)N(C)c4ccc(Cl)c(C(=O)OC)c4)cc23)cc1
# Target: Phosphatidylinositol 4-kinase (Cryptosporidium parvum, UniProt Q5CVD3)
# Read-out: enzyme activity
# Action: inhibitor
# Method: ADP-Glo
setting,inhibition
9.15e-06 µM,85%
8.23e-05 µM,99%
0.006667 µM,101%
0.02 µM,101%
0.002222 µM,101%

# Series 2
# Target: Calcium/calmodulin-dependent protein kinase type II subunit alpha (CAMK2A, Homo sapiens, UniProt Q9UQM7)
# UniProt Q9UQM7, sequence (whole entry, looked up): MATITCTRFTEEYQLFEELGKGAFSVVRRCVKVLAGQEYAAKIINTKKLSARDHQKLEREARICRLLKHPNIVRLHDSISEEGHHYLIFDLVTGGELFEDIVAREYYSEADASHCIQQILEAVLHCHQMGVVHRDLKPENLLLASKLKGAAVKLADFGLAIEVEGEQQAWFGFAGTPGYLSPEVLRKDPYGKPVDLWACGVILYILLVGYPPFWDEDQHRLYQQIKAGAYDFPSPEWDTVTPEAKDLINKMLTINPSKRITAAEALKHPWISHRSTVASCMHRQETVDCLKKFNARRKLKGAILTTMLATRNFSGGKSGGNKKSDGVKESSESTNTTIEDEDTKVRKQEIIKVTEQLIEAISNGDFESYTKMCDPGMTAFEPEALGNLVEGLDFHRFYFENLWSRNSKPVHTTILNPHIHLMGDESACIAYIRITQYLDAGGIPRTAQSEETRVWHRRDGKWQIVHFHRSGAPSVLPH
# Read-out: enzyme activity
# Action: inhibitor
# Tested at: 10 µM
SMILES,inhibition [%]
CO[C@H]1CC=C2CCN3CCC4=C(CC(=O)OC4)[C@]23C1,-11
C[C@@H]1CC[C@@]2(OC1)O[C@H]1C[C@H]3[C@@H]4CC=C5C[C@@H](O[C@@H]6O[C@H](CO)[C@@H](O[C@@H]7O[C@@H](C)[C@H](O)[C@@H](O)[C@H]7O)[C@H](O)[C@H]6O[C@@H]6O[C@@H](C)[C@H](O)[C@@H](O)[C@H]6O)CC[C@]5(C)[C@H]4CC[C@]3(C)[C@H]1[C@@H]2C,-7
Nc1ncnc2c1ccn2[C@@H]1O[C@H](CO)[C@@H](O)[C@H]1O,4
CC(C)=CCC[C@H](C(=O)O)[C@@H]1CC[C@]2(C)C3=C(CC[C@@]12C)[C@@]1(C)CCC(=O)C(C)(C)[C@@H]1CC3,-37
C[C@@]12C[C@@H](c3ccoc3)OC(=O)[C@@H]1CC[C@]1(C)[C@H]2[C@@H]2C=C[C@@]1(O)C(=O)O2,-3

# Other studies, line by line
Compound,target,assay,setting,measurement,value
CCCCN(CCCC)C(=O)CN1C[C@H](c2cc(OC)c3c(c2)OCO3)[C@@H](C(=O)O)[C@@H]1CC(C)(C)CCC,"5-hydroxytryptamine receptor 2C (HTR2C, Homo sapiens, UniProt P28335)","binding, radioligand binding",10 µM,inhibition,-18.7%
C=CC(=O)N1CCC([C@@H]2CCNc3c(C(N)=O)c(-c4ccc(Oc5ccccc5)cc4)nn32)CC1,"Serine/threonine-protein kinase 33 (STK33, Homo sapiens, UniProt Q9BYT3)","enzyme activity, inhibitor",1 µM,inhibition,7%
Cc1c(NC(=O)c2cc(C(N)=O)nc3cc(F)ccc23)c(C(F)(F)F)nn1Cc1ccc(C#N)cc1,"Cyclin-dependent kinase 2 homolog (CRK2, Plasmodium falciparum, UniProt P61075)","cell-free assay, competition with immobilised ligand",1 µM,remaining binding,91%
Cc1nc(C2CCN(C(=O)c3ccc(OC(F)(F)F)cc3N)CC2)c2ncc(N3CCN(C)CC3)cc2n1,"Calcium-dependent protein kinase 1 (CDPK1, Plasmodium falciparum, UniProt P62344)","cell-free assay, competition with immobilised ligand",1 µM,remaining binding,100%
CC(=O)C1=C(C)N(c2cccc(C(F)(F)F)c2)C(=O)N[C@H]1c1ccc(C#N)nc1,"Delta-type opioid receptor (OPRD1, Homo sapiens, UniProt P41143)",ligand displacement,10 µM,inhibition,4.95%

# For quick reference, copied from above (series 1):
setting,inhibition
0.02 µM,101%
0.002222 µM,101%
